{"data": "Measurements pooled from the literature", "gag-pol D654N/K657R/K806Q/T802F reverse transcriptase": "Gag-Pol polyprotein, reverse transcriptase (gag-pol, Human immunodeficiency virus type 1 group M subtype B, UniProt P04585, D654N/K657R/K806Q/T802F)", "rep main protease": "Replicase polyprotein 1ab, main protease (rep, Severe acute respiratory syndrome coronavirus 2, UniProt P0DTD1)", "gag-pol integrase": "Gag-Pol polyprotein, integrase (gag-pol, Human immunodeficiency virus type 1 group M subtype B, UniProt P04585)", "gag-pol K652A reverse transcriptase": "Gag-Pol polyprotein, reverse transcriptase (gag-pol, Human immunodeficiency virus type 1 group M subtype B, UniProt P04585, K652A)", "note": "Lines come from different studies, so protocols differ. ± gives the spread as reported."}
{"Compound": "O=P(O)(O)C(Nc1cccc(-c2cc(F)cc(F)c2)c1)P(=O)(O)O", "tested on": "gag-pol D654N/K657R/K806Q/T802F reverse transcriptase", "endpoint": "IC50", "value": "2 µM"}
{"Compound": "CCC[C@H](NC(=O)[C@@H]1[C@H]2CCC[C@H]2CN1C(=O)[C@@H](NC(=O)[C@@H](NC(=O)c1cnccn1)C1CCCCC1)C(C)(C)C)C(=O)C(=O)NC1CC1", "tested on": "rep main protease", "assay": "reporter gene (mKate2), inhibitor", "setting": "20 µM", "endpoint": "inhibition", "value": "1.09%"}
{"Compound": "CC(N)(Cc1ccc(O)c(O)c1)C(=O)O (racemic)", "tested on": "gag-pol integrase", "assay": "enzyme activity, inhibitor", "endpoint": "IC50", "value": "> 25 µM"}
{"Compound": "Cc1cn([C@H]2C=C[C@@H](COP(=O)(O)OP(=O)(O)OP(=O)(O)O)O2)c(=O)[nH]c1=O", "tested on": "Gag-Pol polyprotein, reverse transcriptase (gag-pol, Human immunodeficiency virus type 1 group M subtype B, UniProt P04585, K653T)", "assay": "inhibitor", "system": "HIV-1", "endpoint": "IC50", "value": "6.84 ± 1.18 µM"}
{"Compound": "O=P(O)(O)C(O)(Cn1ccnc1)P(=O)(O)O", "tested on": "gag-pol D654N/K657R/K806Q/T802F reverse transcriptase", "assay": "inhibitor, biochemical", "endpoint": "IC50", "value": "≥ 100 µM"}
{"Compound": "O=C(Nc1sc2c(c1C(=O)Nc1ccccn1)CCCCC2)c1ccc(O)c(O)c1", "tested on": "Gag-Pol polyprotein, reverse transcriptase p51 C280A (gag-pol, Human immunodeficiency virus type 1 group M subtype B, UniProt P04585, C867A)", "endpoint": "IC50", "value": "0.52 ± 0.01 µM"}
{"Compound": "COC(=O)CC[C@H](NC(=O)[C@H](CC(=O)OC)NC(=O)OCc1ccccc1)C(=O)N[C@H](C(=O)N[C@@H](CC(=O)OC)C(=O)CF)C(C)C", "tested on": "rep main protease", "assay": "reporter gene (Gaussia luciferase), inhibitor", "setting": "20 µM", "endpoint": "inhibition", "value": "4.31%"}
{"Compound": "O=C(O)c1ccc(-c2cccc(/C=N/NC(=O)c3cc(O)c(O)c(O)c3)c2)cc1", "tested on": "Gag-Pol polyprotein, reverse transcriptase I505V (gag-pol, Human immunodeficiency virus type 1 group M subtype B, UniProt P04585, I1092V)", "assay": "RNase H activity, inhibitor", "system": "HIV-1", "endpoint": "IC50", "value": "0.3 ± 0.3 µM"}
{"Compound": "C[C@H](Cn1cnc2c(N)ncnc21)OCP(=O)(O)O", "tested on": "gag-pol K652A reverse transcriptase", "assay": "inhibitor", "system": "HIV-1", "endpoint": "IC50", "value": "5.663 ± 0.00123 µM"}
{"Compound": "CC[C@H](C)[C@H](NC(=O)[C@H](CC(C)C)NC(=O)[C@H](Cc1c[nH]c2ccccc12)NC(=O)[C@H](CCC(N)=O)NC(=O)[C@@H](NC(=O)[C@H](Cc1ccccc1)NC(=O)[C@H](C)NC(=O)[C@H](CCCCNC(=O)COCCOCCNC(=O)COCCOCCNC(=O)CC[C@H](NC(=O)CCCCCCCCCCCCCCCCCCC(=O)O)C(=O)O)NC(=O)[C@H](CCC(N)=O)NC(=O)[C@H](C)NC(=O)[C@@H](NC(=O)[C@H](CCCCN)NC(=O)[C@H](CC(=O)O)NC(=O)[C@H](CC(C)C)NC(=O)C(C)(C)NC(=O)[C@@H](NC(=O)[C@H](CO)NC(=O)[C@H](Cc1ccc(O)cc1)NC(=O)[C@H](CC(=O)O)NC(=O)[C@H](CO)NC(=O)[C@@H](NC(=O)[C@H](Cc1ccccc1)NC(=O)[C@@H](NC(=O)CNC(=O)[C@H](CCC(=O)O)NC(=O)C(C)(C)NC(=O)[C@@H](N)Cc1ccc(O)cc1)[C@@H](C)O)[C@@H](C)O)[C@@H](C)CC)[C@@H](C)CC)C(C)C)C(=O)N[C@@H](C)C(=O)NCC(=O)NCC(=O)N1CCC[C@H]1C(=O)N[C@@H](CO)C(=O)N[C@@H](CO)C(=O)NCC(=O)N[C@@H](C)C(=O)N1CCC[C@H]1C(=O)N1CCC[C@H]1C(=O)N1CCC[C@H]1C(=O)N[C@@H](CO)C(N)=O", "system": "healthy subjects, single ascending dose", "setting": "1.0 mg, day 29", "endpoint": "serum amylase", "value": "66.2 ± 8.2 U/L"}
{"Compound": "CNC(=O)[C@@H](NC(=O)[C@H](CC(C)C)[C@H](O)C(=O)NO)C(C)(C)C", "system": "PB population, mouse", "setting": "intravenous, 120 µg/mouse, 24 h, given 0 min after venom, together with: Daboia russelii venom 2.5 x LD50 i.p.", "endpoint": "survival", "value": "0%"}
{"Compound": "COc1ccc2ccccc2c1/C=N/NC(=O)c1ccc(O)c(O)c1", "tested on": "Gag-Pol polyprotein, reverse transcriptase A502G/D256G (gag-pol, Human immunodeficiency virus type 1 group M subtype B, UniProt P04585, A1089G/D843G)", "assay": "RNase H activity, inhibitor", "system": "HIV-1", "endpoint": "IC50", "value": "> 50 µM"}
{"Compound": "Cc1cn([C@H]2C[C@H](N=[N+]=[N-])[C@@H](CO[P@](=O)(O)O[P@](=O)(O)OP(=O)(O)O)O2)c(=O)[nH]c1=O", "tested on": "gag-pol K652A reverse transcriptase", "assay": "inhibitor", "system": "HIV-1", "endpoint": "IC50", "value": "0.3725 ± 0.00117 µM"}
{"Compound": "Nc1ncnc2c([C@@H]3N[C@H](CO)[C@@H](O)[C@H]3O)c[nH]c12", "tested on": "Lassa mammarenavirus", "assay": "viral replication", "system": "HeLa, Josiah", "setting": "6.3 µM", "endpoint": "inhibition", "value": "3.5%"}
{"Compound": "Cn1cnc(Cn2c(=O)[nH]/c(=N\\c3cc4cn(C)nc4cc3Cl)n(Cc3cc(F)c(F)cc3F)c2=O)n1", "system": "human, moderate renal impairment", "setting": "oral, 375 mg", "endpoint": "any TEAE, mild severity", "value": "12.5%"}
{"Compound": "O=P(O)(O)C(NC1CCCCCC1)P(=O)(O)O", "tested on": "gag-pol D654N/K657R/K806Q/T802F reverse transcriptase", "assay": "inhibitor, biochemical", "endpoint": "IC50", "value": "≥ 100 µM"}
{"Compound": "O=C(O)c1ccc(-c2cccc(/C=N/NC(=O)c3ccc(O)c(O)c3)c2)cc1", "tested on": "Gag-Pol polyprotein, reverse transcriptase A502G (gag-pol, Human immunodeficiency virus type 1 group M subtype B, UniProt P04585, A1089G)", "assay": "RNase H activity, inhibitor", "system": "HIV-1", "endpoint": "IC50", "value": "4.2 ± 1.1 µM"}
{"Compound": "CCCCCCc1ccc(NC(P(=O)(O)O)P(=O)(O)O)cc1", "tested on": "gag-pol D654N/K657R/K806Q/T802F reverse transcriptase", "endpoint": "IC50", "value": "> 100 µM"}
{"Compound": "CN1CCc2cc(O)cc3c2[C@H]1Cc1ccc(O)c(O)c1-3", "tested on": "gag-pol integrase", "assay": "enzyme activity, inhibitor", "endpoint": "IC50", "value": "> 25 µM"}
{"note": "A few entries again:"}
{"Compound": "CN1CCc2cc(O)cc3c2[C@H]1Cc1ccc(O)c(O)c1-3", "tested on": "gag-pol integrase", "assay": "enzyme activity, inhibitor", "endpoint": "IC50", "value": "> 25 µM"}
{"Compound": "CNC(=O)[C@@H](NC(=O)[C@H](CC(C)C)[C@H](O)C(=O)NO)C(C)(C)C", "system": "PB population, mouse", "setting": "intravenous, 120 µg/mouse, 24 h, given 0 min after venom, together with: Daboia russelii venom 2.5 x LD50 i.p.", "endpoint": "survival", "value": "0%"}
{"Compound": "CC[C@H](C)[C@H](NC(=O)[C@H](CC(C)C)NC(=O)[C@H](Cc1c[nH]c2ccccc12)NC(=O)[C@H](CCC(N)=O)NC(=O)[C@@H](NC(=O)[C@H](Cc1ccccc1)NC(=O)[C@H](C)NC(=O)[C@H](CCCCNC(=O)COCCOCCNC(=O)COCCOCCNC(=O)CC[C@H](NC(=O)CCCCCCCCCCCCCCCCCCC(=O)O)C(=O)O)NC(=O)[C@H](CCC(N)=O)NC(=O)[C@H](C)NC(=O)[C@@H](NC(=O)[C@H](CCCCN)NC(=O)[C@H](CC(=O)O)NC(=O)[C@H](CC(C)C)NC(=O)C(C)(C)NC(=O)[C@@H](NC(=O)[C@H](CO)NC(=O)[C@H](Cc1ccc(O)cc1)NC(=O)[C@H](CC(=O)O)NC(=O)[C@H](CO)NC(=O)[C@@H](NC(=O)[C@H](Cc1ccccc1)NC(=O)[C@@H](NC(=O)CNC(=O)[C@H](CCC(=O)O)NC(=O)C(C)(C)NC(=O)[C@@H](N)Cc1ccc(O)cc1)[C@@H](C)O)[C@@H](C)O)[C@@H](C)CC)[C@@H](C)CC)C(C)C)C(=O)N[C@@H](C)C(=O)NCC(=O)NCC(=O)N1CCC[C@H]1C(=O)N[C@@H](CO)C(=O)N[C@@H](CO)C(=O)NCC(=O)N[C@@H](C)C(=O)N1CCC[C@H]1C(=O)N1CCC[C@H]1C(=O)N1CCC[C@H]1C(=O)N[C@@H](CO)C(N)=O", "system": "healthy subjects, single ascending dose", "setting": "1.0 mg, day 29", "endpoint": "serum amylase", "value": "66.2 ± 8.2 U/L"}
